Results from different studies.
Every numbered part comes from another study and shows a few of its results, in no order.
Chain of UniProt Q9UM73 (whole entry, unmodified, looked up): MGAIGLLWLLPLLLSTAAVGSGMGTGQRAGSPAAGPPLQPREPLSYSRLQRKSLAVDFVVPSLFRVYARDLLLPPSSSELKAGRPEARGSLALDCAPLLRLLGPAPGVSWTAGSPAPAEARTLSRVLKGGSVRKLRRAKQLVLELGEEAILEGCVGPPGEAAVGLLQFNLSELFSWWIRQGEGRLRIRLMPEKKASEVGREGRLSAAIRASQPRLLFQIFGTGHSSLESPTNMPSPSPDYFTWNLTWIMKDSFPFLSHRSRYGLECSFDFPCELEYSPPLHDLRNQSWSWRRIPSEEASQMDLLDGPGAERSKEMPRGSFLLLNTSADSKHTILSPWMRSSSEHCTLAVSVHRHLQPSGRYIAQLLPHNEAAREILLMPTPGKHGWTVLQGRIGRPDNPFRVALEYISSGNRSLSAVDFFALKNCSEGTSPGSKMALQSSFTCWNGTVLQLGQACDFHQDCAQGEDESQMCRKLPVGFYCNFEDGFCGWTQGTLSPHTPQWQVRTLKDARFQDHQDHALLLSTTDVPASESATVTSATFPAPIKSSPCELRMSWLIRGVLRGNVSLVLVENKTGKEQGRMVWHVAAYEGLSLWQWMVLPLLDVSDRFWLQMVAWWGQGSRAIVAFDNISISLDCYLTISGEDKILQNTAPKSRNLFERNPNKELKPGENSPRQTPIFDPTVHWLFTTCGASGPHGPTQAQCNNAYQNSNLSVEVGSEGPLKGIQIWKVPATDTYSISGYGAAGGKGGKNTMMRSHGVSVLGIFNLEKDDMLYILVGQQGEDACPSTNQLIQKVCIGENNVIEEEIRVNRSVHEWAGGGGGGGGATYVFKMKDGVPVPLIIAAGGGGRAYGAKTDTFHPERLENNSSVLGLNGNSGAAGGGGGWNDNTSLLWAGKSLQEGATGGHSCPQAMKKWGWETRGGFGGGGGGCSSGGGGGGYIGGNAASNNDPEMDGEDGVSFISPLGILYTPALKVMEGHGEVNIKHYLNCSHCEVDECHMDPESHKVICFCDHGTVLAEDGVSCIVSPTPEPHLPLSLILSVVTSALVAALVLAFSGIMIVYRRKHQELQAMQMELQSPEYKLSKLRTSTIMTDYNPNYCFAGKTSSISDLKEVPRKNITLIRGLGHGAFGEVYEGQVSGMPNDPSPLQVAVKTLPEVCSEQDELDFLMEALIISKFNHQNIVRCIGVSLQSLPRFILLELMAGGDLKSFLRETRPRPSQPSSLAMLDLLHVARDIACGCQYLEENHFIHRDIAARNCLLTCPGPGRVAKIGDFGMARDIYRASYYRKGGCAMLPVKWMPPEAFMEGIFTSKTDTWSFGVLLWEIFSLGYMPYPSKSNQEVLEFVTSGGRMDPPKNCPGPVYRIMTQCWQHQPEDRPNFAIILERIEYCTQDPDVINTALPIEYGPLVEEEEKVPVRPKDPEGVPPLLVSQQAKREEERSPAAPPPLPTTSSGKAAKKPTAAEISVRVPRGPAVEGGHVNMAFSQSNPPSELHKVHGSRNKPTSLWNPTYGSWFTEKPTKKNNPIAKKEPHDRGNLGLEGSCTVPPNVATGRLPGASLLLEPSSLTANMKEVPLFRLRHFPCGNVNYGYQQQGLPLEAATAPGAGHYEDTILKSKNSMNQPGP
Chain of UniProt P11802 (whole entry, looked up): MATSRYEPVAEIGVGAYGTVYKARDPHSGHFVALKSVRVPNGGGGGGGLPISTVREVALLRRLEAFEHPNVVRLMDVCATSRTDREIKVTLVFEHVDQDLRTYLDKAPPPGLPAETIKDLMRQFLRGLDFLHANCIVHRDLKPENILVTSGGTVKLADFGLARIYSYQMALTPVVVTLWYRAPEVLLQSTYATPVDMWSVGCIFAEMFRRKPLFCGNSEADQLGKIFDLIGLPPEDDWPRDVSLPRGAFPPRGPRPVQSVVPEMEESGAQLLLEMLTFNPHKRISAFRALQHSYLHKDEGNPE
Chain of UniProt P07333 (whole entry, looked up): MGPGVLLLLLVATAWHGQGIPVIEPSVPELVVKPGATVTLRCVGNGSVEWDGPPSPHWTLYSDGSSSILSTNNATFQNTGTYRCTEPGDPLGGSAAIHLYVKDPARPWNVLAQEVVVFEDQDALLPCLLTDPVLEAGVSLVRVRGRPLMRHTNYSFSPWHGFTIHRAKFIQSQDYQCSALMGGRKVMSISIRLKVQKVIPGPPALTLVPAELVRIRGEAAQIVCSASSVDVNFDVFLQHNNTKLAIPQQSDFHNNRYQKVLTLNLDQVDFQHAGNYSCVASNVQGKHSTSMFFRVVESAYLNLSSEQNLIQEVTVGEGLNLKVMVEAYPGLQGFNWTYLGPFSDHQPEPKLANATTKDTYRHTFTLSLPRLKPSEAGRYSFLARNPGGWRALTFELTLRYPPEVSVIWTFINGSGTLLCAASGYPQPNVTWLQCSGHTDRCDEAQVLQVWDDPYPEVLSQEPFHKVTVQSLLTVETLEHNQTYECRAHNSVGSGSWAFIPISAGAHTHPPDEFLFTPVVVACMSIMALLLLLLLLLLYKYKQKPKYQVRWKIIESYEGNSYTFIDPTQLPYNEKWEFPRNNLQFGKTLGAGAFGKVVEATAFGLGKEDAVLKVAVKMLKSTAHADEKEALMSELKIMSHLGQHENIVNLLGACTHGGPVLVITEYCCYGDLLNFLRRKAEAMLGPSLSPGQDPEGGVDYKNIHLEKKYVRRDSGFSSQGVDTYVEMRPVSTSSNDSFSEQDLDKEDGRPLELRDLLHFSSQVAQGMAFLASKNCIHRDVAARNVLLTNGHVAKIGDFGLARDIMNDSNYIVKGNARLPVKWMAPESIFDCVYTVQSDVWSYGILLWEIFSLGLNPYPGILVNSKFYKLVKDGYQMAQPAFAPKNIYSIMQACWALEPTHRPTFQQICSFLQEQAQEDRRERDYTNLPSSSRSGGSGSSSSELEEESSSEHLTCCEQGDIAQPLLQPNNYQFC
Chain of UniProt P52564 (whole entry, looked up): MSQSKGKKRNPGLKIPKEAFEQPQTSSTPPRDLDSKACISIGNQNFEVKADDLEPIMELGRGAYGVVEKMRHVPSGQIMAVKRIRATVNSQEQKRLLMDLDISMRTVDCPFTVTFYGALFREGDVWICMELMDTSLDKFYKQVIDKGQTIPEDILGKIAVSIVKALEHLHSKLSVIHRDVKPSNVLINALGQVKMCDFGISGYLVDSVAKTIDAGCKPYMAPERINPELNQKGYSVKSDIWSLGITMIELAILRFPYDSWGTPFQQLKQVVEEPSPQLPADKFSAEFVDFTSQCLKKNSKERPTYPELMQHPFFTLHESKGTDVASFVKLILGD

Set 1 — method: protein-binding microarray; form: double-stranded DNA, one strand shown; medium: in vitro; tested at: 250 nM; notes: 60-bp whole probe; with: salmon DNA 0.4 mg/ml; baseline: random background probes; reading: higher = stronger binding; constant ends, left off below: GCCTAGCAC … GTCTTGATTCGCTTGACGCTGCTG
Target: Interferon regulatory factor 5, full length, phosphomimetic (IRF5, Homo sapiens, UniProt Q13568-2, residues 1-514, K96S/S451D/S453D/S456D/S462D)
| Oligonucleotide | log fluorescence [z-score] |
| --- | --- |
| GACGGTTTCGGTTTCGGGATGTGCTAG | 10.5 |
| GACGAAGTGAGACTGGAGACGTGCTAG | -0.335 |
| GACGCACTGGGGTTTCGGGACGTGCTA | 1.21 |
| TTTGGTTCCGGTTTCGGTTAGTGCTAG | 9.88 |
| TACGATCTCAGACTGGAGACGTGCTAG | -0.232 |
| GACGATATCGGGACTGGAAACGTGCTA | 0.979 |
| GACGGTTTCCGTCTCGGGACGTGCTAG | 1.03 |
| TTAGATTTCGGGTATTGATTAGTGCTA | 5.28 |

Set 2 — observed: cell-free assay; method: competition with immobilised ligand; tested at: 1 µM
SMILES: O=C(NS(=O)(=O)c1ccc(NCC2CCOCC2)c([N+](=O)[O-])c1)c1ccc(N2CCN(Cc3ccc(C(F)(F)F)cc3-c3ccc(Cl)cc3)CC2)cc1Oc1cnc2[nH]ccc2c1
| target | remaining binding |
| --- | --- |
| ALK (Homo sapiens, UniProt Q9UM73, C1156Y) | 100% |
| PDGFRB (Homo sapiens, UniProt P09619) | 100% |
| MAP2K6 (Homo sapiens, UniProt P52564) | 97% |
| CAMK2B (Homo sapiens, UniProt Q13554) | 96% |
| NEK6 (Homo sapiens, UniProt Q9HC98) | 89% |
| STK38L (Homo sapiens, UniProt Q9Y2H1) | 93% |
| EGFR (Homo sapiens, UniProt P00533, L858R/T790M) | 75% |
| Cyclin-dependent kinase 4, with cyclin D3 (CDK4, Homo sapiens, UniProt P11802) | 100% |
| Macrophage colony-stimulating factor 1 receptor, autoinhibited (CSF1R, Homo sapiens, UniProt P07333) | 85% |

Set 3 — method: protein-binding microarray; form: double-stranded DNA, one strand shown; medium: in vitro; tested at: 0.8 µM; notes: whole 60-bp probe, no competitor; reading: higher = stronger binding; constant ends, left off below: … GTCTTGATTCGCTTGACGCTGCTG
Target: Centromere-binding protein 1, full length, N-terminal tag (CBF1, Saccharomyces cerevisiae, UniProt P17106, residues 1-351)
Chain of UniProt P17106 (whole entry, looked up): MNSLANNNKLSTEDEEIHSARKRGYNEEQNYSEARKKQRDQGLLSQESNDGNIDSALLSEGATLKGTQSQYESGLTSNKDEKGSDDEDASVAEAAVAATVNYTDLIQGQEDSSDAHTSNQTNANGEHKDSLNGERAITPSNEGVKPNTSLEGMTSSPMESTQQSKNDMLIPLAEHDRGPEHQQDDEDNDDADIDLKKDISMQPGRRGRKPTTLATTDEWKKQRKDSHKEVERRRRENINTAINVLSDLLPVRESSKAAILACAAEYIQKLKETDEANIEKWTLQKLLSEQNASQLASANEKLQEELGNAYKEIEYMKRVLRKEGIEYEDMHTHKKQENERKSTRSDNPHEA
| Oligonucleotide | fluorescence intensity [a.u.] |
| --- | --- |
| CTATGTAGTAAAAAAATCGTGATGTATACAAACTTC | 609 |
| GAATTATTTGGCCCCCACGAGAACGCGGGGAAATAG | 550 |
| CTAGTTACAAGTTCAATGGTGGTGCAAGGATTGTTC | 520 |
| CTACCATGTTTCAGTCTCACATGGGTTTTTTGATTC | 702 |
| CCTAACTACTATACGTACGTGCGATAGCTTCGTACA | 494 |
| CTAATCACATGCAAGCACATGAAGCTGGAACCATTC | 1810 |
| GAAAAAGCTGCACGTGACTAACTAGAACCATTTTAG | 19700 |
| GAAAGAACATATGGTGGCGTGTTTCTGCTGCAATAG | 608 |

Set 4 — observed: enzyme activity; action: inhibitor; tested at: 0.5 µM; baseline: control
Target: Rho-associated protein kinase 2 (ROCK2, Homo sapiens, UniProt O75116)
Chain of UniProt O75116 (whole entry, looked up): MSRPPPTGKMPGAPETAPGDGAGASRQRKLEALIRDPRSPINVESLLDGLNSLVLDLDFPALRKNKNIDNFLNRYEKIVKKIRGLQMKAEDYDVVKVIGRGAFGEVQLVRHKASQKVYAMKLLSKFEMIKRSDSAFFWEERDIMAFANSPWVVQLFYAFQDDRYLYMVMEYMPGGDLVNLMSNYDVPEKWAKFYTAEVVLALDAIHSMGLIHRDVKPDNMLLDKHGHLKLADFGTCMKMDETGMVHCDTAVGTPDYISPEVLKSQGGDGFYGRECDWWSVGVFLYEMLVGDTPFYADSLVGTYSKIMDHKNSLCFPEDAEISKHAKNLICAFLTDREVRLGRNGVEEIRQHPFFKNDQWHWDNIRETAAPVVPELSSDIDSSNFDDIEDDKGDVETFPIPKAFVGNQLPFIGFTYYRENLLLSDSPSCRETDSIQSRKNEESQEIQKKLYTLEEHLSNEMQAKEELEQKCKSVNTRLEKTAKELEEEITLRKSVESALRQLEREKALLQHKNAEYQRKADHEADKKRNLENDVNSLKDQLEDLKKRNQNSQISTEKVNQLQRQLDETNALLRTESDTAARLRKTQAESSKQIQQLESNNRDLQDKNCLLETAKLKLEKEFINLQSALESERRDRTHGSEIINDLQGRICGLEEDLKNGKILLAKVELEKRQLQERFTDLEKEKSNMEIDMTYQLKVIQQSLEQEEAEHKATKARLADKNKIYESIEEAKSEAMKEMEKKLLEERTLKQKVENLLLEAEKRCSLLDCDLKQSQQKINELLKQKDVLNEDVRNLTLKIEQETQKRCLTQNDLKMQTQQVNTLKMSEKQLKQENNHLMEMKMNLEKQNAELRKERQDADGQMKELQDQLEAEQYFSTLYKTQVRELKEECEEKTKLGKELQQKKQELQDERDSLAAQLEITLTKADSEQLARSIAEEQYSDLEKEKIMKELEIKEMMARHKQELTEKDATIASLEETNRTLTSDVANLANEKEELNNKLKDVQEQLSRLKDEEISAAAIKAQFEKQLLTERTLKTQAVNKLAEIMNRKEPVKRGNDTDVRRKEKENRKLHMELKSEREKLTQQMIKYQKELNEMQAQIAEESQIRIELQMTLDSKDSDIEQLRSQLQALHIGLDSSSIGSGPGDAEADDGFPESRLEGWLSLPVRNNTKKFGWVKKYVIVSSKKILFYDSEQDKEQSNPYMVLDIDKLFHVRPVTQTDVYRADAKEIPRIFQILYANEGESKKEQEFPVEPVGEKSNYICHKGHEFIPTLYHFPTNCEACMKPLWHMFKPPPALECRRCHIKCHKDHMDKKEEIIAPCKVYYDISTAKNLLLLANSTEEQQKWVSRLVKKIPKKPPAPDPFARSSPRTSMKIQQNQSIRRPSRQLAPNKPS
| SMILES | remaining activity [%] |
| --- | --- |
| COc1cc2ncnc(Nc3ccc(F)c(Cl)c3)c2cc1OCCCN1CCOCC1 | 90.8 |
| O=C(CCCc1ccc(-c2ccccc2F)cc1)Nc1ccc(O)cc1 | 90.5 |
| CC(C)[C@H](CO)Nc1nc(Nc2cc(N)cc(Cl)c2)c2ncn(C(C)C)c2n1 | 101 |
| Cn1c2ccccc2c2c3c(c4c5ccccc5n(CCC#N)c4c21)CNC3=O | 48.5 |

Some of these lines once more (set 1):
| Oligonucleotide | log fluorescence [z-score] |
| --- | --- |
| GACGCACTGGGGTTTCGGGACGTGCTA | 1.21 |
| TTTGGTTCCGGTTTCGGTTAGTGCTAG | 9.88 |
| TACGATCTCAGACTGGAGACGTGCTAG | -0.232 |
